Assay results from different studies.
Numbers after ± are the reported error.
Method: steady-state kinetics
B1: protein (Thermotoga neapolitana, UniProt B9K712); chain MKMLYDLAKKRKTVRRFKKEKPPLEDLIYSLKVANEAPSGMNAQPWRFLIVEDEKLKGQIRRVCERSEKTFYENVRGRLKEWLDEKRFTWRKPFLKEAPYLLLVFSEKSAPYSRESVWLAVGYLLLALEEKGLGSVPYTPPDFREVEKLVNTPSELRLEVILPVGYPDDPKPKYPRNEVIVRYNTF
B2: KDM4E (Homo sapiens, UniProt B2RXH2); chain MKSVHSSPQNTSHTIMTFYPTMEEFADFNTYVAYMESQGAHQAGLAKVIPPKEWKARQMYDDIEDILIATPLQQVTSGQGGVFTQYHKKKKAMRVGQYRRLANSKKYQTPPHQNFADLEQRYWKSHPGNPPIYGADISGSLFEESTKQWNLGHLGTILDLLEQECGVVIEGVNTPYLYFGMWKTTFAWHTEDMDLYSINYLHFGEPKTWYVVPPEHGQHLERLARELFPDISRGCEAFLRHKVALISPTVLKENGIPFNCMTQEAGEFMVTFPYGYHAGFNHGFNCAEAINFATPRWIDYGKMASQCSCGESTVTFSMDPFVRIVQPESYELWKHRQ
B3: enzyme (Streptomyces venezuelae, UniProt Q9ZGI2); chain SGADTGAGAGMFRALFRQAVEDDRYGEFLDVLAEASAFRPQFASPEACSERLDPVLLAGGPTDRAEGRAVLVGCTGTAANGGPHEFLRLSTSFQEERDFLAVPLPGYGTGTGTGTALLPADLDTALDAQARAILRAAGDAPVVLLGHSGGALLAHELAFRLERAHGAPPAGIVLVDPYPPGHQEPIEVWSRQLGEGLFAGELEPMSDARLLAMGRYARFLAGPRPGRSSAPVLLVRASEPLGDWQEERGDWRAHWDLPHTVADVPGDHFTMMRDHAPAVAEAVLSWLDAIEGIEGAGK
B4: enzyme (Bacillus subtilis, UniProt P39639); chain MKTKEDMQELYFPTPKLIEWENGVRQYSTVRGDTEVLMSYVPPHTNVEPHQHKEVQIGMVVSGELMMTVGDVTRKMTALESAYIAPPHVPHGARNDTDQEVIAIDIKRLKADETYTSPEDYFLDIFKTRDLLPGMEVTFFVEDWVEIMLAKIPGNGGEMPFHKHRNEQIGICIGGGYDMTVEGCTVEMKFGTAYFCEPREDHGAINRSEKESKSINIFFPPRYNRAKAKKMKADE
B5: enzyme (UniProt A0A1I5R890); chain NKILLRPLLLKQKNPENLRQLIKKSFHRTFDTFESLFSMLRNDEAFYNRPEPLRHPHIFYFGHTAVFFINKLILSKIIDTRINAKMESIFAIGVDEMSWDDLNDDHYEWPSVEETRLYRNRVREVVDNLINTLPLELPITWDSPWWIILMGIEHERIHIETSSVLIRQTDISLVLPQPEWSKCNVSGKAPENELLFVPGGEIEIGKYKSDDYYGWDNEYGKHKTVIPDFKASKYLVSNGEFMEFVKDGGYENDLWWEEEGLAWRNFKKAKHPIFWIPFKNEYRYRTLTEIVDMPLDWPVDVNYHEAKAFCNWLSAKKGKPIRLPVEDEWYRLKEYCNVPDVSKWDEKAPANINLEHYASACPVTQFSFGNFYDVIGNVWQWTETPIYPFNGFKIHPIYDDFSTPTFDNRHNLIKGGSFISTGNEILASSRYAFRRHFFQHAGFRYVESSYKEKINSSGYESDTQVSQYCEFGWGDRYFGIENYPKRCAKICIEVTEGKPRKKALDVGCAIGRSTLELATSFESVTGLDFSARFIEMAERMRKDGSIRYTITTEGELVEYKEATLPKRLAKVVDRVEFWQADACNLKPIFTGYDLVFAGNLIDRLYDPAKFLNDIGKRINSGGMLILTSPYTWLEEFTPKQKWLGGFKQDGEPVKSIDGLKSHLKDSFKLIETRDIEFVIRETARKFQHSVAQMSIWEKI
B6: PPIP5K2 (Homo sapiens, UniProt O43314); chain MSEAPRFFVGPEDTEINPGNYRHFFHHADEDDEEEDDSPPERQIVVGICSMAKKSKSKPMKEILERISLFKYITVVVFEEEVILNEPVENWPLCDCLISFHSKGFPLDKAVAYAKLRNPFVINDLNMQYLIQDRREVYSILQAEGILLPRYAILNRDPNNPKECNLIEGEDHVEVNGEVFQKPFVEKPVSAEDHNVYIYYPTSAGGGSQRLFRKIGSRSSVYSPESNVRKTGSYIYEEFMPTDGTDVKVYTVGPDYAHAEARKSPALDGKVERDSEGKEVRYPVILNAREKLIAWKVCLAFKQTVCGFDLLRANGQSYVCDVNGFSFVKNSMKYYDDCAKILGNIVMRELAPQFHIPWSIPLEAED
B7: genB3 (Micromonospora echinospora, UniProt Q2MG50); chain MDSANLTNRGLVERARRVTAAENYDIGTRFSAMIQSGEGAWLTDVEGNRYVDLTASSGTIILGHRNQAVTEAITRQIRDFGTAFASTLSVPRVELAERLCERYECAEKVVFHKTGSEGTAMAARLARAATGRELILSCGYHGWHEWQLAGETFGYQQTTGVVGFGYNEKALAKMLEAFGNEVAGVLISPELLYFDVEFYQRMYALCARYDVPFMMDEVYTGFRAGPKGVHGLGVPADVVVVSKGLANGHSLAAVMGRRDIIDAYDVSGIQGTYTREVPPMAAAMAVLDVLDTPGVYEHAEAMGRRLADGMREILTGEGIPNWVGGPALMFDTVLPNDDLGWEIYKTAHDFGVYFEDSGTQLVTTAFDEAAVDHALTAFRKATRQVIADRPDIAPTSGGELTEERKLDFAEEAFGGLLRDDERTNALIDETIEKVVNRDRSIKPVLIPAQN
B8: TENT2 (Homo sapiens, UniProt Q6PIY7); chain MFPNSILGRPPFTPNHQQHNNFFTLSPTVYSHQQLIDAQFNFQNADLSRAVSLQQLTYGNVSPIQTSASPLFRGRKRLSDEKNLPLDGKRQRFHSPHQEPTVVNQIVPLSGERRYSMPPLFHTHYVPDIVRCVPPFREIAFLEPREITLPEAKDKLSQQILELFETCQQQISDLKKKELCRTQLQREIQLLFPQSRLFLVGSSLNGFGTRSSDGDLCLVVKEEPCFFQVNQKTEARHILTLVHKHFCTRLSGYIERPQLIRAKVPIVKFRDKVSCVEFDLNVNNIVGIRNTFLLRTYAYLENRVRPLVLVIKKWASHHQINDASRGTLSSYSLVLMVLHYLQTLPEPILPSLQKIYPESFSPAIQLHLVHQAPCNVPPYLSKNESNLGDLLLGFLKYYATEFDWNSQMISVREAKAIPRPDGIEWRNKYICVEEPFDGTNTARAVHEKQKFDMIKDQFLKSWHRLKNKRDLNSILPVRAAVLKR
UniProt P10635, sequence (whole entry, looked up): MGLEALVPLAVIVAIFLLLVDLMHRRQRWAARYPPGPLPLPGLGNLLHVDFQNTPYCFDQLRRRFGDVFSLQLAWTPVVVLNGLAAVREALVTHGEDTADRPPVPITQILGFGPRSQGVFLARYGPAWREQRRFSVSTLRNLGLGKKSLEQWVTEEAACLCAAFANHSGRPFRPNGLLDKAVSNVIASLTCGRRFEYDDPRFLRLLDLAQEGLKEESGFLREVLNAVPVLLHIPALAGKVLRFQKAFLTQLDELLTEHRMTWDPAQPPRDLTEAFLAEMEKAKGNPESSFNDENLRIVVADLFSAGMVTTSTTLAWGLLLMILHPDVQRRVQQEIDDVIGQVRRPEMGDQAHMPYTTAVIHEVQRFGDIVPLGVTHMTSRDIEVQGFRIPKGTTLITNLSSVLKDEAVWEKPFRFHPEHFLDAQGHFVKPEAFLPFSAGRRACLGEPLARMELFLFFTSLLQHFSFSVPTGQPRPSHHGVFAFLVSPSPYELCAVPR

`B1 (protein)` gave a kcat of 0.085 ± 0.005 s⁻¹ (N[C@@H](Cc1ccc(O)c(Br)c1)C(=O)O; pH 7.4, 60 °C).
The kcat of `B2 (KDM4E)` is reported as 0.076 ± 0.001 s⁻¹ (C[C@H](N)C(=O)N[C@@H](CCCNC(=N)N)C(=O)N[C@@H](CCCC[N+](C)(C)C)C(=O)N[C@@H](CO)C(=O)N[C@H](C(=O)NCC(=O)NCC(=O)N[C@@H](CCCCN)C(=O)O)[C@@H](C)O; pH 7.5, 37 °C).
With `CYP2D6 (Homo sapiens, UniProt P10635)` the kcat was 0.00947 ± 0.000544 s⁻¹ (CC(C)(C)NC(CO)c1cc(Cl)c(N)c(C(F)(F)F)c1; pH 7.4, 37 °C, not purified).
With `CYP2C9 (Homo sapiens, UniProt P11712)` the kcat was 0.0218 s⁻¹ (COc1ccc2c(c1)C(C)(C)C1=C(Cl)C(=O)C(Cl)=CC1=N2; pH 7.4, 37 °C).
For `B3 (enzyme)`, the kcat was 1.7 ± 0.137 s⁻¹ (CC[C@@H](O)[C@H](C)/C=C/C(=O)[C@H](C)C[C@H](C)[C@H](O)[C@@H](C)C(=O)SCCNC(C)=O).
`B4 (enzyme)` gave a kcat of 24.5 s⁻¹ (O=C(O)C(=O)C[C@H]1C=C[C@H](O)C=C1; pH 8.1, apparent).
For `B5 (enzyme)`, the kcat was 2.19 ± 0.045 s⁻¹ (Cn1cncc1C[C@H](N)C(=O)O).
For `enzyme (Astragalus mongholicus, UniProt A0A977WMR2)`, the kcat was 0.024 s⁻¹ (CC(C)(O)[C@H]1CC[C@@](C)([C@H]2[C@@H](O)C[C@@]3(C)[C@@H]4C[C@H](O)[C@H]5C(C)(C)[C@@H](O)CC[C@@]56C[C@@]46CC[C@]23C)O1).
For `B6 (PPIP5K2)`, the kcat was 0.19 ± 0.02 s⁻¹ (O=P(O)(O)O[C@@H]1[C@@H](OP(=O)(O)O)[C@H](OP(=O)(O)OP(=O)(O)O)[C@@H](OP(=O)(O)O)[C@H](OP(=O)(O)OP(=O)(O)O)[C@@H]1OP(=O)(O)O).
With `B7 (genB3)` the kcat was 0.0297 ± 0.000333 s⁻¹ (CN[C@@H]1[C@@H](O)[C@@H](O[C@@H]2[C@@H](O)[C@H](O[C@H]3O[C@H](CN)[C@@H](O)[C@H](OP(=O)(O)O)[C@H]3N)[C@@H](N)C[C@H]2N)OC[C@]1(C)O; 30 °C).
The kcat of `B8 (TENT2)` is reported as 2.93e-05 ± 1.6e-06 s⁻¹ (Nc1ncnc2c1ncn2[C@@H]1O[C@H](COP(=O)(O)OP(=O)(O)OP(=O)(O)O)[C@@H](O)[C@H]1O; pH 8, 37 °C, added: Mg2+).

Repeated from above:
For `B5 (enzyme)`, the kcat was 2.19 ± 0.045 s⁻¹ (Cn1cncc1C[C@H](N)C(=O)O).
